# Measurements from different studies.
# Each line is one published result; not all experiments were run side by side. Numbers after ± are the reported error.
Structure (SMILES),test,test system,conditions,how to read,measurement,value
CCCC[C@H](NC(=O)[C@@H](NC(=O)[C@H](CC(=O)O)NC(=O)[C@H](CCC(N)=O)NC(=O)[C@H](CC(C)C)NC(=O)[C@H](CC(C)C)NC(=O)[C@H](CCCN)NC(=O)[C@H](CCCNC(=N)N)NC(=O)[C@H](C)NC(=O)[C@H](CO)NC(=O)[C@H](CC(C)C)NC(=O)[C@H](CCC(N)=O)NC(=O)[C@H](CC)NC(=O)[C@H](CC(C)C)NC(=O)[C@@H](NC(=O)[C@H](CCCN)NC(=O)[C@H](CCCNC(=N)N)NC(=O)[C@H](Cc1ccc(O)cc1)NC(=O)[C@H](CO)NC(=O)[C@H](CCC(N)=O)NC(=O)[C@@H](NC(=O)[C@H](Cc1ccccc1)NC(=O)[C@@H](NC(=O)[C@H](C)NC(=O)[C@H](CC(=O)O)NC(=O)[C@@H](C)NC(=O)[C@H](Cc1ccc(O)cc1)NC)[C@@H](C)CC)[C@@H](C)O)C(C)C)[C@@H](C)CC)C(=O)N[C@@H](CC(=O)O)C(=O)N[C@@H](CCCNC(=N)N)C(=O)NC,GH release,"male rat, serum","subcutaneous, dose not given, 15 min",relative to: GHRH(1-29)NH2,relative potency,224
COc1ccc(C2CC(c3ccc(C)cc3)=Nc3ccccc3S2)cc1OC (centres unmarked),,"Wistar rat, STZ-induced diabetes, serum","10 mg/kg, 28 days",,total cholesterol,147 mg/dL
N=C(N)NCCC[C@H](N)C(=O)N1CCC[C@H]1C(=O)NCC(=O)NCC(=O)O,"diketopiperazine formation, Arrhenius plot, ESI-MS",1-propanol,"70, 80, 90 °C, 0.5% acetic acid",,activation energy,23.7 ± 1.91 kcal/mol
CCCCCCCCCCCCCCCC(=O)NCCCCCCNC(=O)C(CCCCNC(=O)CCN1C(=O)CC(SC[C@H](NC(=O)[C@H](CCCNC(=N)N)NC(=O)CNC(=O)[C@H](CCCCN)NC(=O)[C@@H](NC(=O)[C@H](CC(C)C)NC(=O)[C@H](Cc2c[nH]c3ccccc23)NC(=O)[C@H](C)NC(=O)[C@@H](NC(=O)[C@H](Cc2ccccc2)NC(=O)[C@H](CCC(=O)O)NC(=O)[C@H](CCCCN)NC(=O)[C@H](C)NC(=O)[C@H](C)NC(=O)[C@H](CCC(N)=O)NC(=O)CNC(=O)[C@H](CCC(=O)O)NC(=O)[C@H](CC(C)C)NC(=O)[C@H](Cc2ccc(O)cc2)NC(=O)[C@H](CO)NC(=O)[C@H](CO)NC(=O)[C@@H](NC(=O)[C@H](CC(=O)O)NC(=O)[C@H](CO)NC(=O)[C@@H](NC(=O)[C@H](Cc2ccccc2)NC(=O)[C@@H](NC(=O)CNC(=O)[C@H](CCC(=O)O)NC(=O)CNC(=O)[C@@H](N)Cc2c[nH]cn2)[C@@H](C)O)[C@@H](C)O)C(C)C)[C@@H](C)CC)C(C)C)C(N)=O)C1=O)NC(=O)CCN1C(=O)CC(SC[C@H](NC(=O)[C@H](CCCNC(=N)N)NC(=O)CNC(=O)[C@H](CCCCN)NC(=O)[C@@H](NC(=O)[C@H](CC(C)C)NC(=O)[C@H](Cc2c[nH]c3ccccc23)NC(=O)[C@H](C)NC(=O)[C@@H](NC(=O)[C@H](Cc2ccccc2)NC(=O)[C@H](CCC(=O)O)NC(=O)[C@H](CCCCN)NC(=O)[C@H](C)NC(=O)[C@H](C)NC(=O)[C@H](CCC(N)=O)NC(=O)CNC(=O)[C@H](CCC(=O)O)NC(=O)[C@H](CC(C)C)NC(=O)[C@H](Cc2ccc(O)cc2)NC(=O)[C@H](CO)NC(=O)[C@H](CO)NC(=O)[C@@H](NC(=O)[C@H](CC(=O)O)NC(=O)[C@H](CO)NC(=O)[C@@H](NC(=O)[C@H](Cc2ccccc2)NC(=O)[C@@H](NC(=O)CNC(=O)[C@H](CCC(=O)O)NC(=O)CNC(=O)[C@@H](N)Cc2c[nH]cn2)[C@@H](C)O)[C@@H](C)O)C(C)C)[C@@H](C)CC)C(C)C)C(N)=O)C1=O (some centres unmarked),,db/db mice non-fasted,"subcutaneous, 100 nmol/kg",,duration of glucose lowering,~36 h
CCCC[C@H](NC(=O)[C@@H](NC(=O)[C@H](CC(=O)O)NC(=O)[C@H](CCC(N)=O)NC(=O)[C@H](CC(C)C)NC(=O)[C@H](CC(C)C)NC(=O)[C@H](CCCN)NC(=O)[C@H](CCCNC(=N)N)NC(=O)[C@H](C)NC(=O)[C@H](CO)NC(=O)[C@H](CC(C)C)NC(=O)[C@H](CCC(N)=O)NC(=O)[C@H](CC)NC(=O)[C@H](CC(C)C)NC(=O)[C@@H](NC(=O)[C@H](CCCN)NC(=O)[C@H](CCCNC(=N)N)NC(=O)[C@H](Cc1ccc(O)cc1)NC(=O)[C@H](CO)NC(=O)[C@H](CC(N)=O)NC(=O)[C@@H](NC(=O)[C@H](Cc1c(F)c(F)c(F)c(F)c1F)NC(=O)[C@@H](NC(=O)[C@H](C)NC(=O)[C@H](CC(=O)O)NC(=O)[C@@H](C)NC(=O)CCc1ccc(O)cc1)[C@@H](C)CC)[C@@H](C)O)C(C)C)[C@@H](C)CC)C(=O)N[C@@H](CO)C(=O)N[C@@H](CCCNC(=N)N)C(=O)NCCCC(N)=O,GH release,"rat, male, serum","subcutaneous, 3 µg/kg, 15 min",relative to: reference GHRH agonist JI-38,relative potency,1.21
CC[C@H](C)[C@H](NC(=O)[C@H](CCCCN)NC(=O)[C@H](CC(N)=O)NC(=O)CNC(=O)[C@@H](NC(=O)[C@H](C)NC(=O)[C@H](CCCNC(=N)N)NC(=O)[C@H](CC(C)C)NC(=O)[C@H](CCCCN)NC(=O)[C@H](CCCCN)NC(=O)[C@H](CCCCN)NC(=O)[C@H](C)NC(=O)[C@H](CCCCN)NC(=O)[C@@H]1CSSC[C@H](NC(=O)[C@H](CCCNC(=N)N)NC(=O)CN)C(=O)N[C@@H](CC(N)=O)C(=O)N[C@@H](CC(C)C)C(=O)N[C@@H](CC(C)C)C(=O)N1)C(C)C)C(=O)N[C@@H](CCCCN)C(=O)N[C@@H](CCC(=O)O)C(=O)N[C@H](C(=O)N[C@@H](CCCCN)C(=O)N[C@@H](CC(N)=O)C(=O)N[C@H](C(=O)N[C@H](C(=O)N[C@@H](Cc1ccccc1)C(=O)N[C@@H](CC(N)=O)C(=O)N[C@@H](CCCNC(=N)N)C(=O)O)C(C)C)C(C)C)[C@@H](C)CC,,"BALB/c mouse, CLP sepsis, lung","intraperitoneal, 5 mg/kg, 12 h post-surgery",,MPO activity,decreased
CCCCSc1nnc(-c2ccc(N)cc2)o1,H2O2 scavenging,,,,IC50,0.0406 ± 0.0022 mM
COc1cc2c(cc1OC)CC(=O)N(C[C@H]1CCCN(CCOc3ccc(F)cc3)C1)CC2,,"VTA dopamine neurons, stress-naive male mice","intraperitoneal, 10 mg/kg",relative to: baseline,burst firing (%SWB),no effect
COc1c2c(cc3oc(C)cc(=O)c13)O[C@H](C(C)(C)O[C@@H]1O[C@H](CO)[C@@H](O)[C@H](O)[C@H]1O)C2,analgesia,mouse,"oral, 4 mg/kg, 0.5 h",,hot plate latency,10.7 ± 1.51 s
Cc1cc(O)c(C=O)c2c1C(=O)Oc1c(CO)c(O)c3c(c1O2)C(O)OC3=O (centres unmarked),,"rat, male, streptozotocin-induced diabetes, cauda epididymis","10 mg/kg, 9 weeks",,sperm with detached head,5.83 ± 0.75%
CC(=N)N(C)c1ccc(C(=O)Nc2ccc(C)cc2C(=O)Nc2ccc(Cl)cn2)cc1,,human plasma,,,concentration doubling prothrombin time,0.08 ± 0.02 µM
[2H]C([2H])([2H])C(c1cc2nnc(-c3cc(F)ccc3F)n2nc1OCc1ncnn1C)(C([2H])([2H])[2H])C([2H])([2H])[2H],,"amygdala-kindled Wistar rats, cortex","oral, 6 mg/kg, 2 h before stimulation",relative to: baseline,afterdischarge duration change,-53%
O=c1cc(-c2ccc(O)cc2)oc2cc3oc4cc(O)c(O)cc4c3c(O)c12,"ABTS scavenging, absorbance",,,,EC50,3.18 mM
CC/C=C\C/C=C\C/C=C\C/C=C\C/C=C\CCCCOC(CC)C(=O)O (centres unmarked),,"APOE*3Leiden.CETP mice, high-fat/cholesterol diet","112 mg/kg/day, 20 weeks",relative to: control,hepatocellular hypertrophy change,-82%
CC[C@H](C)[C@H](NC(C)=O)C(=O)N[C@H]1CSCC[C@@H](C(=O)N(C)[C@H](C(N)=O)[C@@H](C)CC)NC(=O)[C@H](CCCNC(=N)N)NC(=O)[C@H](Cc2c[nH]cn2)NC(=O)[C@H](C)NC(=O)CN(C)C(=O)[C@H](Cc2c[nH]c3ccccc23)NC(=O)[C@H](CC(=O)O)NC(=O)[C@H](CCC(N)=O)NC(=O)[C@H](Cc2cn(C)c3ccccc23)NC(=O)[C@H](C(C)C)NC1=O,"classical complement activation, ELISA C3b deposition",normal human plasma,sulfoxide oxidized,relative to: untreated peptide,IC50 ratio,4 to 6 fold
CC12N3Cc4c(c(OCCCS(=O)(=O)[O-])c5ccccc5c4OCCCS(=O)(=O)[O-])CN1C(=O)N1Cc4c(c(OCCCS(=O)(=O)[O-])c5ccccc5c4OCCCS(=O)(=O)[O-])CN(C3=O)C12C.[Na+].[Na+].[Na+].[Na+] (centres unmarked),phase solubility,,added: β-estradiol,,association constant,2600 M⁻¹
CC1(CN)CCN(c2cnc(Sc3cccc(Cl)c3Cl)c(N)n2)CC1,HE staining,"imiquimod psoriasis mice, skin",dose not given,,inflammatory cell infiltration,decreased
CC(=O)N[C@@H](CC(N)=O)C(=O)NCC(=O)N[C@@H](C)C(=O)N[C@@H](C)C(N)=O,1H NMR,sodium phosphate buffer 50 mM,"pH 7.8, 55 °C",,rate constant succinimide to α-Asp,2.08 h⁻¹
CCCC[C@H](NC(=O)[C@@H](NC(=O)[C@H](CC(=O)O)NC(=O)[C@H](CCC(N)=O)NC(=O)[C@H](CC(C)C)NC(=O)[C@H](CC(C)C)NC(=O)[C@H](CCCN)NC(=O)[C@H](CCCNC(=N)N)NC(=O)[C@H](C)NC(=O)[C@H](CO)NC(=O)[C@H](CC(C)C)NC(=O)[C@H](CCC(N)=O)NC(=O)[C@H](CC)NC(=O)[C@H](CC(C)C)NC(=O)[C@@H](NC(=O)[C@H](CCCN)NC(=O)[C@H](CCCNC(=N)N)NC(=O)[C@H](Cc1ccc(O)cc1)NC(=O)[C@H](CO)NC(=O)[C@H](CCC(N)=O)NC(=O)[C@@H](NC(=O)[C@H](Cc1ccccc1)NC(=O)[C@@H](NC(=O)[C@H](C)NC(=O)[C@H](CC(=O)O)NC(=O)[C@@H](C)NC(=O)CCc1ccc(O)cc1)[C@@H](C)CC)[C@@H](C)O)C(C)C)[C@@H](C)CC)C(=O)N[C@@H](CC(=O)O)C(=O)N[C@@H](CCCNC(=N)N)C(=O)NC,GH release,"male rat, serum","subcutaneous, dose not given, 30 min",relative to: GHRH(1-29)NH2,relative potency,100
C=C(c1ccc(C(=O)O)c(F)c1)c1cc2c(cc1C)C(C)(C)C=CC2(C)C,"RNA sequencing, measured: Lyve1","rat, brain","dose not given, 24 h",relative to: vehicle,log2 fold change,-0.052

# For quick reference, copied from above:
Structure (SMILES),test,test system,conditions,how to read,measurement,value
Cc1cc(O)c(C=O)c2c1C(=O)Oc1c(CO)c(O)c3c(c1O2)C(O)OC3=O (centres unmarked),,"rat, male, streptozotocin-induced diabetes, cauda epididymis","10 mg/kg, 9 weeks",,sperm with detached head,5.83 ± 0.75%
COc1ccc(C2CC(c3ccc(C)cc3)=Nc3ccccc3S2)cc1OC (centres unmarked),,"Wistar rat, STZ-induced diabetes, serum","10 mg/kg, 28 days",,total cholesterol,147 mg/dL
